Measured values of several laboratories.
Compare with care: the assays were run in different laboratories. “And” joins repeats or separate records; there may be more than shown. Numbers after ± are the reported error.

Compound = Cc1cc(C(=O)N2CCNCCNCCNCC2)c(O)c(C(=O)N2CCNCCNCCNCC2)c1; target or system = PK-59; assay = cell growth or viability, MTT; conditions = 24 h; measurement = IC50; value = > 10000 µM
Compound = CCOc1cncc(-c2ccc(NC(=O)C3(c4ccnc(NS(=O)(=O)C5CC5)n4)CCOCC3)nc2)n1; target or system = lung cancer; assay = cell viability, CellTiter-Glo; test system = DMSO 0.1%; conditions = 72 h, line code 586; measurement = IC50; value = 6.65 µM
Compound = CC(C)C[C@](O)(C(=O)OCc1ccc(O[C@@H]2O[C@H](CO)[C@@H](O)[C@H](O)[C@H]2O)cc1)[C@H](O)C(=O)OCc1ccc(O[C@@H]2O[C@H](CO)[C@@H](O)[C@H](O)[C@H]2O)cc1; target or system = T47D breast cancer; assay = cell viability, MTT; test system = DMEM with 10% FBS; conditions = 48 h; measurement = IC50; value = > 200 µM
Compound = Cn1ncc(-c2ccc3c(=O)[nH]nc(CN)c3c2)c1-c1c(F)c(Cl)cc(OC2CC2)c1C#N; target or system = HCC4006; assay = cell viability, inhibitor, CellTiter-Glo; conditions = 120 h, baseline-subtracted; measurement = IC50; value = 0.05 µM
Compound = CCCCCCCCCC(=O)[O][Pt]([Cl])([Cl])[O]C(=O)CCCCCCCCC.N.N; target or system = A549/DDP cisplatin-resistant; assay = MTT; conditions = 48 h, non-transfected; measurement = IC50; value = 6.94 ± 11.6 µM
Compound = CNS(=O)(=O)Nc1nccc(Cc2c(C)c3ccc(Oc4ncccc4F)cc3oc2=O)c1F; target or system = SNU878; assay = cell viability; conditions = 7 days; measurement = IC50; value = 0.0251 µM
Compound = CCCCCCCCCCCC(=O)Oc1c(C)c(OC)c2c(c1C)OC(=O)[C@@H](CCCCCCCCCC)[C@]2(O)/C=C/c1ccccc1 (relative stereo); target or system = FaDu; assay = cell growth or viability, SRB; conditions = 72 h; measurement = IC50; value = > 50 µM
Compound = C=CC(=O)Nc1cc(Nc2nccc(-c3cn(C)c4ccccc34)n2)c(OC)cc1N(C)CCN(C)C; target or system = Ba/F3 EGFR 19Del/C797S BBT-176-resistant BR2; assay = cell growth; conditions = 72 h; measurement = IC50; value = > 1 µM
Compound = CC1(C)CC(=O)C(C2C3=C(CC(C)(C)CC3=O)Oc3ccc(Br)cc32)=C(O)C1 (stereo not drawn); target or system = 3T3-L1; assay = cell growth or viability, MTT; conditions = 72 h; measurement = IC50; value = 10.2 µg/mL
Compound = CCOC(=O)c1c(NC(=O)Cn2cnc([N+](=O)[O-])n2)sc2c1CCCC2; target or system = Trypanosoma cruzi; assay = reporter mRNA translation, inhibitor, item: capped polyadenylated Renilla luciferase mRNA; test system = cell-free extract; conditions = concentration not given; scale = reference: positive over negative control; measurement = translation activity; value = 107% and 97.4% and 102% and 90.3%
Compound = N#Cc1c(N)nc2c(c1-c1ccc(F)cc1)Cc1cc(O)ccc1-2; target or system = HBP-ALL; assay = cell viability, CellTiter-Glo; scale = no inhibition at 100 µM; measurement = IC50; value = 12.3 µM
Compound = CC(C)c1ccc(N(C)c2ccc3c(c2)OCC[C@H]3CNc2cnccc2C(=O)O)cc1; target or system = SNU-16; assay = cell growth or viability, ATP luminescence; conditions = 7 days; measurement = IC50; value = 0.00422 µM
Compound = CN(C)CCCCCN(C)Cc1cc2ccccc2o1; target or system = Trypanosoma cruzi; assay = reporter mRNA translation, inhibitor, item: capped polyadenylated Renilla luciferase mRNA; test system = cell-free extract; conditions = concentration not given; scale = reference: control RNA; measurement = relative translation; value = 94.8%
Compound = CCn1cc(-c2cccc(C(F)(F)F)c2)c2sc(C(=N)NC3CCS(=O)(=O)CC3)cc2c1=O; target or system = Kasumi 1; assay = cell growth or viability, ATP luminescence; measurement = IC50; value = 4.46 µM
Compound = O=C1CCC(N2C(=O)c3ccc(N4CCC(C(=O)N5CCC(CCN6CCC(CNC(=O)c7cccc(-c8noc(C(F)(F)F)n8)c7)(c7nc(-c8ccccc8)cs7)CC6)CC5)CC4)cc3C2=O)C(=O)N1 (stereo not drawn); target or system = JeKo-1 CRBN knockout; assay = cell proliferation; conditions = 168 h; measurement = IC50; value = 1.1 ± 0.0131 µM

Repeated from above:
Compound = CCCCCCCCCC(=O)[O][Pt]([Cl])([Cl])[O]C(=O)CCCCCCCCC.N.N; target or system = A549/DDP cisplatin-resistant; assay = MTT; conditions = 48 h, non-transfected; measurement = IC50; value = 6.94 ± 11.6 µM
